Results pooled from the literature.
A part holds a random share of what one study measured.

Series 1
Target: TAR DNA-binding protein 43, full length, His tag (TARDBP, Homo sapiens, UniProt Q13148, residues 1-414)
Technique: RNA Bind-n-Seq
Form: RNA
Matrix: in vitro
Tested at: 20 nM
Setting: 6-mer, flanks averaged, single round
With: 150 mM KCl
Baseline: input library
Reading: higher = stronger binding
Quantity: 6-mer enrichment (R)
AGAGUG: 1.61
UUCUUA: 0.565
AAGACG: 0.881
GUUCUC: 0.575
CUUGUU: 0.642
UGUUAA: 0.672
AAGACA: 0.672
ACUGAC: 0.656
UUGAUG: 0.816
GUCGUA: 0.781
UGUCUU: 0.621
UGUCAC: 0.649
AAGGAU: 0.776
CUUACA: 0.578
GGCACA: 1.19
UUAGUG: 0.882
UCAUAC: 0.543
UUGGAU: 0.719
UGCAGU: 0.833
UGUUCU: 0.596
AGUCUU: 0.57
UAUCCC: 0.594
GAUCUG: 0.806
UCACCG: 0.668
GCAAGU: 0.925

Series 2
Target: Interferon regulatory factor 3, full length, phosphomimetic (IRF3, Homo sapiens, UniProt Q14653, residues 1-427, S386D/S396D/S398D/S402D/T404D/S405D)
UniProt Q14653, sequence (whole entry, unmodified, looked up): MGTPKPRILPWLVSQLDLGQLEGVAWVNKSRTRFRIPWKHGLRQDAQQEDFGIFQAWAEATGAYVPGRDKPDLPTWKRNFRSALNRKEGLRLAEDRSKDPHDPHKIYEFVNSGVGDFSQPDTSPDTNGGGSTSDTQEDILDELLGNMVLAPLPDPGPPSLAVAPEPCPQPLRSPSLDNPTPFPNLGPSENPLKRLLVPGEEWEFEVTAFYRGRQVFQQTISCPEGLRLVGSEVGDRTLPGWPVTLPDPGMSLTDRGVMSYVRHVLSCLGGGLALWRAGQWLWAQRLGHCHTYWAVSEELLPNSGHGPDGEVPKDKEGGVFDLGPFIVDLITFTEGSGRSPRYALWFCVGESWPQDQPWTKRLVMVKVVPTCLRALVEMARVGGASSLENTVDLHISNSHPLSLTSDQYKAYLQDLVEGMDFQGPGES
Technique: protein-binding microarray
Form: double-stranded DNA, one strand shown
Matrix: in vitro
Tested at: 2540 nM top
Setting: 60-bp whole probe
With: salmon DNA 0.4 mg/ml
Baseline: random background probes
Reading: higher = stronger binding
Quantity: fitted relative affinity
Constant ends, left off below: GCCTAGCAC … GTCTTGATTCGCTTGACGCTGCTG
GAAGGACTGCTTATCCTGACGTGCTAG: -0.334 z-score
GTGAGTCCCAAGAATGGTGTGGTGCTA: -0.729 z-score
TCAACTTTGCTCTGTGCGACTGTGCTA: -0.387 z-score
GACGGTCTCGGTCTAGGGACGTGCTAG: 0.746 z-score
TTAGATTTCGGGACTGGATTAGTGCTA: 1.45 z-score
TTCCAATTCTCTTTTCACTTGTGCTAG: 3.7 z-score
AGAAACTTTTTTCTGATTGAGTGCTAG: 1.44 z-score
TCAAATATATATTCATAACTGTGCTAG: 0.368 z-score
CACCAGCGAGGGCCCGGGAGGTGCTAG: -0.907 z-score
CTTTCTTTGCTTCACCCTGGGTGCTAG: 5.1 z-score
GACGGACTGGGTATCGAGACGTGCTAG: -0.486 z-score
GACGGTCTCCGTCTCGGGACGTGCTAG: 2.06 z-score
GACGGTTTCGTCTATCGGGACGTGCTA: 2.58 z-score
TCAATTCTCTGCTTGCGACTGTGCTAG: 0.454 z-score
GACGATTTCGGGTTTCGAGTCGTGCTA: 3.15 z-score
TCAACAATGGCTTTGCCACTGTGCTAG: -0.856 z-score

Series 3
Target: Sal-like protein 4, full length isoform A (SALL4, Homo sapiens, UniProt Q9UJQ4, residues 1-1053)
UniProt Q9UJQ4, sequence (whole entry, looked up): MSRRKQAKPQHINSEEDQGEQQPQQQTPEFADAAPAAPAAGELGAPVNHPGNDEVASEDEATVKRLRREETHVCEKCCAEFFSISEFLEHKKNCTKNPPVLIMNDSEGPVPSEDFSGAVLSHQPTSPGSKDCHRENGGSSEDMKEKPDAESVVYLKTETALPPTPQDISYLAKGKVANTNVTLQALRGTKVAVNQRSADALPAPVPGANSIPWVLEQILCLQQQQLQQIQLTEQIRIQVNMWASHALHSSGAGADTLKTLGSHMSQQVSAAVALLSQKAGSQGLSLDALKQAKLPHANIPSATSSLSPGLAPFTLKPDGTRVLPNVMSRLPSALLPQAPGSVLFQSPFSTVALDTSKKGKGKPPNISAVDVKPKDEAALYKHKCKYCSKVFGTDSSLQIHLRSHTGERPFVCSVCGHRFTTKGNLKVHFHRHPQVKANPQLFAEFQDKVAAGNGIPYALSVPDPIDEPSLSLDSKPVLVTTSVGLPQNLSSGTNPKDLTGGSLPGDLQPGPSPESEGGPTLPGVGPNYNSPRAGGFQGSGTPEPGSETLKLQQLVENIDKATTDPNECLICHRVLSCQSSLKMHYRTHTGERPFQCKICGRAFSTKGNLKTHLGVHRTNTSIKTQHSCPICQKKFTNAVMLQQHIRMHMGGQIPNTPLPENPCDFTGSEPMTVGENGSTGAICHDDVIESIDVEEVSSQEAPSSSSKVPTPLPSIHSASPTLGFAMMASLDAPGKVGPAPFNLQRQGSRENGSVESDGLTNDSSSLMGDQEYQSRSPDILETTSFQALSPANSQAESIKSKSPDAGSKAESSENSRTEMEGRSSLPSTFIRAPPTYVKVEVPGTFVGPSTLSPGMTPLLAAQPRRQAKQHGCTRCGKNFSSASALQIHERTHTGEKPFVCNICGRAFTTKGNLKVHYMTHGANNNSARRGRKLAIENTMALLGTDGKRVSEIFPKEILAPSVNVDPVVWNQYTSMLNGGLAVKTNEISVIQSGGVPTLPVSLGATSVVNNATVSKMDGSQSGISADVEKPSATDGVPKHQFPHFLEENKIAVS
Technique: universal PBM
Form: double-stranded DNA, one strand shown
Matrix: in vitro
Tested at: 600 nM
Setting: 8-mer, flanks averaged, mean of replicates
Reading: higher = stronger binding
Quantity: E-score
ACGTGAGA: 0.0405
GCAAGGAC: -0.27
CCAGCGTA: -0.093
TGCAGGAA: 0.00864
CCAATCGA: -0.0818
CCGGAAGA: -0.0908
CACATGTG: -0.0763
GTTTGCAA: 0.176
CGATCTCC: -0.238
AGGGTCGA: -0.129
AAGCCCGT: -0.325
AGTCCTGG: -0.322
AGATGAAC: -0.0293
CAAGCTGC: -0.195
ATTTGTGA: 0.224
GAAACCGA: -0.153
CGGTCTCC: -0.363
AACAAAAA: 0.349
TACACTAA: 0.205
AGGATTTA: 0.201
CAGTATAG: 0.187
AGCGACCG: -0.323
ATGGTTGA: 0.0816
AATTTGCA: 0.203

Series 4
Target: RNA binding protein fox-1 homolog 2, RRM domain, GST-SBP tag (RBFOX2, Homo sapiens, UniProt O43251-10, residues 100-194)
Technique: RNA Bind-n-Seq
Form: RNA
Matrix: in vitro
Tested at: 365 nM
Setting: natural RNA segment, single round, ends assumed
Baseline: no-protein control
Reading: higher = stronger binding
Quantity: RBNS enrichment (R)
Constant ends, left off below: GGGAGUUCUACAGUCCGACGAUC … UGGAAUUCUCGGGUGCCAA
Residues (chain): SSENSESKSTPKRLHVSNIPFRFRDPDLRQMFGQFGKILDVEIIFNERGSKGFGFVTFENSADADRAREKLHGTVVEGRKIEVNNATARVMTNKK
UCUUGCCCAAGGGCCUCCUGCAUAGACCUUGUCGGUCAAAUCUUGAGUCCUUGUACAGAAAUGAUAGAGGCCUGAGGGGGUGUGCAGGUGAUAGACCCUGGUACUCCUAA: 0.411
UUUCUCACUUUUGUUCAGUGUUUUUAUAAUAUUUGAUAAUAAAAUUCAAGAAAAUCCUAACUAAUGGAAACCUGGUUACCUAAUUCCUGUAUCCUGAAGGAUUUCUACUA: 0.346
AAAAUCACUGUCAGAGCUAGCCUUGCCUAGUGAGUCUGUGUCCACAGGCUGUAACAGGGUGGAAGAGCAACAGUAGGCAGCCCAGGGAGCAGCAUGUGCUCACGGCAUCA: 5.2
GAAUCCAGGUUAUAGUGCCUUCGACGUCUCGGUUCCCCGGAAGGAUGCUCCUUCCCUGAAUAUGCAGUAGAGCUGUGCCACAUGCCCUUUGAAGAUCUUCAUGGCUGCUG: 0.243
AAUGCUGUUCUUUAGUAGCAACUAAAAUGUGUCUUGCUGUCAUUUAUAUUCCUUUUCCCAGGAAAGAAGCAUUUCUGAUACUUUCUGUCAAAAAUCAAUAUGCAGAAUGG: 0.232
GCCUUCCCAUAUUGGUGGCAGUGGUGCCACACUGAACAGAGUGGAAGACAUAUGCCAUGCAGCUACACCUACCGGCCCUGGGACGCCGGAGGACAGGGCAUUGUCCUCAG: 0.4
UGAUCCUGAAGUGACGUCCUGAUGUCUGCCCAGCAACCGACUCAACCUGCUUCUGUGACUUCGUUCUUUUUGUUUUCAAGGGGUGAAAACCCCCUGUCAGAAGGUACCGU: 0.259
CCAGCGUGUGUAAAACAGAACAGUAACUCUAUGUGACCCCAGAUAACAUUUUGUAACAUUGUGCUUCCUUGUAGUUUGUAAUGUGAGUUCAAUCAGUAUUUAUGUUGAAA: 2.05

Series 5
Target: Histone acetyltransferase KAT6A, winged helix 1, GST fusion (KAT6A, Homo sapiens, UniProt Q92794, residues 1-85)
Technique: protein binding microarray
Form: double-stranded DNA, one strand shown
Matrix: in vitro
Tested at: not given
Setting: 8-mer, flanks averaged, mean of 2 arrays, mostly near background
Baseline: not given
Reading: higher = stronger binding
Quantity: E-score
Target sequence (chain): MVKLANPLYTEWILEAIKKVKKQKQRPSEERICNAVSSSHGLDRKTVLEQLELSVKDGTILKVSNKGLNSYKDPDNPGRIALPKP
ACAAACTA: -0.0459
TATAATGA: -0.108
ATATCTAA: -0.117
CGCACGCG: 0.421
CGTGTCGA: 0.00772
CCTATTCA: -0.0807
CTTCTTAC: 0.0883
GATCTTGA: -0.17
TACCCAGA: -0.28
CAATGACA: -0.252
CAGCCAGC: -0.199
CATGGTGC: -0.022
GGGATAAA: -0.106
CGAGTGAC: -0.15
AGACTCTC: -0.152
ATTCTTAA: -0.0664
GGAAGCAC: -0.00796
ACGTCTTA: -0.158
GCCTGAAA: 0.00189
CGCTCCCA: 0.0392
ACCAAGCT: -0.212
GCCTAACC: -0.0677
CGTAGATA: 0.0824
AGCGCATG: 0.165
CGAGTCTC: -0.0774

Repeated from above (series 3):
GCAAGGAC: -0.27
CCAGCGTA: -0.093
TGCAGGAA: 0.00864
CCAATCGA: -0.0818
CCGGAAGA: -0.0908
CACATGTG: -0.0763
